Measured values collected from several papers.
Each line is one published result; not all experiments were run side by side. Numbers after ± are the reported error.
IDE: Insulin-degrading enzyme (IDE, Homo sapiens, UniProt P14735)
PYL4: PYL4 (Arabidopsis thaliana, UniProt O80920)
FPR1: fMet-Leu-Phe receptor (FPR1, Homo sapiens, UniProt P21462)
PPARG: Peroxisome proliferator-activated receptor gamma (PPARG, Homo sapiens, UniProt P37231)
ADRB2: Beta-2 adrenergic receptor (ADRB2, Homo sapiens, UniProt P07550)
ATP2A2: ATP2A2 (Sus scrofa, UniProt P11607)
Cone cGMP-gated channel: Cone cGMP-gated channel (Morone saxatilis, UniProt Q3I0N1+Q3I0N2)

SMILES | target | test | test system | conditions | EC50
CCOCc1nc(O)c(-c2nnc(Cc3ccc(Cl)cn3)o2)c(O)c1-c1c(OC)cccc1OC | Apelin receptor (APLNR, Homo sapiens, UniProt P35414) | β-arrestin1 recruitment, agonist, BRET | HEK293 |  | 0.00881 ± 0.00026 µM
COc1ccccc1-c1ccc([C@@H]2[C@@H](CO)N3CCCCN(S(=O)(=O)c4ccccc4C)C[C@@H]23)cc1 | IDE | enzyme activity, inhibitor, fluorescence kinetic |  | with: Mca-RPPGFSAFK(Dnp)-OH substrate | 0.25 µM
Cc1cccc(C(=O)NCc2cn(-c3c(C4CC4)cc(CC(=O)NC4(C(=O)O)CCCCC4)cc3C3CC3)nn2)n1 | PYL4 | phosphatase activity recovery, antagonist |  | with: HAB1, ABA 5000 nM | 0.585 ± 0.096 µM
CCCCCC(O)CC(=O)O (stereo not shown) | HCAR3 (Homo sapiens, UniProt P49019) | agonist, cell-based |  |  | 571 µM
O=C(Cc1cc(C2CC2)c(-n2cc(CNC(=O)c3ccc4ccccc4n3)nn2)c(C2CC2)c1)NC1(C(=O)O)CCCCC1 | PYL4 | phosphatase activity recovery, antagonist |  | with: HAB1, ABA 5000 nM | 0.171 ± 0.028 µM
Cc1cccc(-c2ccc([C@@H]3[C@@H](CO)N4C/C=C\CN(S(=O)(=O)c5cnc(C)n5C)C[C@@H]34)cc2)c1C | IDE | enzyme activity, inhibitor, fluorescence kinetic |  | with: Mca-RPPGFSAFK(Dnp)-OH substrate | 0.001 µM
N#Cc1ccc(C[C@@H](Nc2ncc(-c3ccc(F)cc3)o2)C(=O)N2CCc3ccccc32)cc1 | FPR1 | calcium mobilization, agonist | HL-60 transfected with FPR1 | inactive up to 50 µM | > 50 µM
O=C(O)CCCc1cc2cc(Cl)ccc2n1S(=O)(=O)c1ccc2ncsc2c1 | PPARG | receptor activation, agonist, luciferase reporter |  | serum-free, species human | 0.5 µM
COc1ccccc1C#Cc1ccc([C@H]2[C@H]3CN(C(=O)C4CCC4)CCCCN3[C@H]2CO)cc1 | IDE | enzyme activity, inhibitor, fluorogenic kinetic |  | with: Mca-RPPGFSAFK(Dnp)-OH substrate | > 100 µM
N#Cc1ccc(C[C@H](Nc2c(Nc3ccc(Br)cc3)c(=O)c2=O)C(=O)N2CCc3ccccc32)cc1 | FPR1 | calcium mobilization, agonist | HL-60 transfected with FPR1 | inactive up to 50 µM | > 50 µM
COc1ccc(C(=O)c2ccccc2)c(O)c1 | Androgen receptor (AR, Homo sapiens, UniProt P10275) |  | human cells |  | 13.6 µM
CCCCC[C@H](O)/C=C/[C@H]1[C@H](O)CC(=O)[C@@H]1C/C=C\CCCC(=O)O | PTGER1 (Homo sapiens, UniProt P34995, G92A/P39A) | IP1 accumulation, agonist | AD293 |  | 0.069 µM
CCn1c(-c2nc3ccc(C(=O)N4CCCC(N)C4)cc3n2C)cc2ccccc21 (stereo not shown) | ADRB2 | agonist, TR-FRET |  |  | > 31.6 µM
O=C(Cc1cc(C2CC2)c(-n2cc(CNC(=O)c3cnc4ccccc4n3)nn2)c(C2CC2)c1)NC1(C(=O)O)CCCCC1 | PYL4 | phosphatase activity recovery, antagonist |  | with: HAB1, ABA 5000 nM | 0.128 ± 0.014 µM
Cc1ccccc1-c1ccc([C@@H]2[C@@H](CO)N3CCCCN(C(=O)NC4CCCC4)C[C@H]23)cc1 | IDE | enzyme activity, inhibitor, fluorogenic kinetic |  | with: Mca-RPPGFSAFK(Dnp)-OH substrate | 3.6 µM
N[C@@H](CCC(=O)O)C(=O)O | Excitatory amino acid transporter 5 (Slc1a7, Mus musculus, UniProt Q8JZR4) | anion current, agonist, whole-cell patch clamp | mouse rod photoreceptors | -70 mV, uncaging | 10.5 ± 1.73 µM
c1ccc(CCCCCOCCc2ccc3c(c2)OCO3)cc1 | ATP2A2 | ATPase activity, activator, NADH-coupled enzyme | enriched microsomes |  | ~4 µM
N#Cc1ccc(C[C@@H](NC(=O)c2cc3ccccc3[nH]2)C(=O)N2CCc3ccccc32)cc1 | FPR1 | calcium mobilization, agonist | HL-60 transfected with FPR1 | inactive up to 50 µM | > 50 µM
O=C(Cc1cc(C2CC2)c(-n2cc(CNC(=O)c3ccc(Br)o3)nn2)c(C2CC2)c1)NC1(C(=O)O)CCCCC1 | PYL4 | phosphatase activity recovery, antagonist |  | with: HAB1, ABA 5000 nM | 0.338 ± 0.043 µM

SMILES | target | test | test system | conditions | EC50
N#Cc1ccc(C[C@H](NC(=O)c2cc3cc([N+](=O)[O-])ccc3[nH]2)C(=O)N2CCc3ccccc32)cc1 | FPR1 | calcium mobilization, agonist | HL-60 transfected with FPR1 | inactive up to 50 µM | > 50 µM
CC(C)(C)OC(=O)N1CCc2cc(CCOCCCCCc3ccccc3)ccc21 | ATP2A2 | ATPase activity, activator, NADH-coupled enzyme | enriched microsomes |  | 0.7 ± 0.2 µM
N#Cc1ccc(C[C@@H](Nc2nnc(-c3ccc(F)cc3)o2)C(=O)N2CCc3ccccc32)cc1 | FPR1 | calcium mobilization, agonist | HL-60 transfected with FPR1 | inactive up to 50 µM | > 50 µM
CCO[C@@H](Cc1ccc(OCCn2c(C)ccc2-c2ccc(SC)cc2)cc1)C(=O)O | PPARG | receptor activation, agonist, luciferase reporter |  | serum-free, species human | 0.3 µM
N#Cc1ccc(C[C@H](Nc2nnc(-c3cccc(F)c3)s2)C(=O)N2CCc3ccccc32)cc1 | FPR1 | calcium mobilization, agonist | HL-60 transfected with FPR1 | inactive up to 50 µM | > 50 µM
CC(=O)Nc1ccc(S(=O)(=O)N2CCCCN3[C@H](CO)[C@@H](c4ccc(-c5cccc(C)c5C)cc4)[C@@H]3C2)c(C)c1 | IDE | enzyme activity, inhibitor, fluorescence kinetic |  | with: Mca-RPPGFSAFK(Dnp)-OH substrate | 1.6 µM
OC[C@H]1O[C@H](O[C@]2(CCl)O[C@H](CCl)[C@@H](O)[C@@H]2O)[C@H](O)[C@@H](O)[C@H]1Cl | T1R2/T1R3 (Homo sapiens, UniProt Q7RTX0+Q8TE23) | receptor activation, agonist, luminescence | stably transfected cells |  | 410 µM
Cc1ccc(C)c(-c2ccc([C@@H]3[C@@H](CO)N4CCCCN(S(=O)(=O)c5ccccc5C)C[C@@H]34)cc2)c1 | IDE | enzyme activity, inhibitor, fluorescence kinetic |  | with: Mca-RPPGFSAFK(Dnp)-OH substrate | 0.054 µM
CCO[C@H](COc1ccc(C(F)(F)F)cc1)CSc1ccc(OCC(=O)O)c(C)c1 | PPARG | receptor activation, agonist, luciferase reporter |  | serum-free, species human | 7 µM
Cc1cccc(-c2ccc([C@@H]3[C@H](CO)N4CCCCN(S(=O)(=O)c5cn(C)cn5)C[C@@H]34)cc2)c1 | IDE | enzyme activity, inhibitor, fluorogenic kinetic |  | with: Mca-RPPGFSAFK(Dnp)-OH substrate | 2.1 µM
N#Cc1ccc(C[C@@H](Nc2nnc(-c3ccc(F)cc3)s2)C(=O)N2CCc3ccccc32)cc1 | FPR1 | calcium mobilization, agonist | HL-60 transfected with FPR1 | inactive up to 50 µM | > 50 µM
Cn1cc2c(C(=O)O)ccc(NS(=O)(=O)c3ccc(OCC4CCC4)c(Cl)c3)c2n1 | ADRB2 | agonist |  |  | > 10 µM
O=C(Cc1cc(C2CC2)c(-n2cc(CNC(=O)c3ccc4cccc(F)c4n3)nn2)c(C2CC2)c1)NC1(C(=O)O)CCCCC1 | PYL4 | phosphatase activity recovery, antagonist |  | with: HAB1, ABA 5000 nM | 0.138 ± 0.011 µM
Nc1nc(O)c2nc(Br)n([C@@H]3O[C@@H]4COP(=O)(O)O[C@H]4[C@H]3O)c2n1 | Cone cGMP-gated channel | cGMP-gated current, suction electrode | striped bass (Morone saxatilis), single cone outer segment | with: Ca2+ 0 µM | 15.1 µM
O=C(Cc1cc(C2CC2)c(-n2cc(CNC(=O)c3cccc(Br)n3)nn2)c(C2CC2)c1)NC1(C(=O)O)CCCCC1 | PYL4 | phosphatase activity recovery, antagonist |  | with: HAB1, ABA 5000 nM | 0.568 ± 0.067 µM
Nc1nc2c(ncn2[C@@H]2O[C@@H]3COP(=O)(O)O[C@H]3[C@H]2O)c(=O)[nH]1 | Cone cGMP-gated channel | channel current, agonist, suction electrode | Morone saxatilis, cone outer segments | with: 0.2 µM Ca2+ | 157 ± 19.8 µM
Cc1ccccc1-c1ccc([C@H]2[C@@H](CO)N3CCCCN(C(=O)c4cccnc4)C[C@@H]23)cc1 | IDE | enzyme activity, inhibitor, fluorogenic kinetic |  | with: Mca-RPPGFSAFK(Dnp)-OH substrate | 12.5 µM
O=C(Cc1cc(C2CC2)c(-n2cc(CNC(=O)c3ccc(Cl)s3)nn2)c(C2CC2)c1)NC1(C(=O)O)CCCCC1 | PYL4 | phosphatase activity recovery, antagonist |  | with: HAB1, ABA 5000 nM | 0.39 ± 0.063 µM

Some of these lines once more:
SMILES | target | test | test system | conditions | EC50
N#Cc1ccc(C[C@@H](NC(=O)c2cc3ccccc3[nH]2)C(=O)N2CCc3ccccc32)cc1 | FPR1 | calcium mobilization, agonist | HL-60 transfected with FPR1 | inactive up to 50 µM | > 50 µM
N#Cc1ccc(C[C@H](NC(=O)c2cc3cc([N+](=O)[O-])ccc3[nH]2)C(=O)N2CCc3ccccc32)cc1 | FPR1 | calcium mobilization, agonist | HL-60 transfected with FPR1 | inactive up to 50 µM | > 50 µM
Cc1cccc(C(=O)NCc2cn(-c3c(C4CC4)cc(CC(=O)NC4(C(=O)O)CCCCC4)cc3C3CC3)nn2)n1 | PYL4 | phosphatase activity recovery, antagonist |  | with: HAB1, ABA 5000 nM | 0.585 ± 0.096 µM
COc1ccccc1-c1ccc([C@@H]2[C@@H](CO)N3CCCCN(S(=O)(=O)c4ccccc4C)C[C@@H]23)cc1 | IDE | enzyme activity, inhibitor, fluorescence kinetic |  | with: Mca-RPPGFSAFK(Dnp)-OH substrate | 0.25 µM
N#Cc1ccc(C[C@@H](Nc2nnc(-c3ccc(F)cc3)o2)C(=O)N2CCc3ccccc32)cc1 | FPR1 | calcium mobilization, agonist | HL-60 transfected with FPR1 | inactive up to 50 µM | > 50 µM
